Assay results pooled from the literature.
Protocols differ between the studies behind these lines. ± gives the spread as reported.
ADRA2C: Alpha-2C adrenergic receptor (ADRA2C, Homo sapiens, UniProt P18825)
Sequence of UniProt P18825 (whole entry, looked up): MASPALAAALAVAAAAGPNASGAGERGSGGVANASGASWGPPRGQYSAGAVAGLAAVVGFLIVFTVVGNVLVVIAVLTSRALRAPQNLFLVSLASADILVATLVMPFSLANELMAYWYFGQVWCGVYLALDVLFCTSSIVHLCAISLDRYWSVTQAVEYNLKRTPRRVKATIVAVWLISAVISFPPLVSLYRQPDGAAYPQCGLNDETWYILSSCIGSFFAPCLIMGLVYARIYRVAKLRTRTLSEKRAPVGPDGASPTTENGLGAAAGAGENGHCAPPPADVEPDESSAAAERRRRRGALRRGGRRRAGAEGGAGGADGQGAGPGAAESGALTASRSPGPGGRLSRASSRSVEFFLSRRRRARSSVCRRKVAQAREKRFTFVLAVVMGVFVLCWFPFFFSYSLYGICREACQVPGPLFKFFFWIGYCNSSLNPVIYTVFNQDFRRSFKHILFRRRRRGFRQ
Sequence of UniProt Q8N884 (whole entry, looked up): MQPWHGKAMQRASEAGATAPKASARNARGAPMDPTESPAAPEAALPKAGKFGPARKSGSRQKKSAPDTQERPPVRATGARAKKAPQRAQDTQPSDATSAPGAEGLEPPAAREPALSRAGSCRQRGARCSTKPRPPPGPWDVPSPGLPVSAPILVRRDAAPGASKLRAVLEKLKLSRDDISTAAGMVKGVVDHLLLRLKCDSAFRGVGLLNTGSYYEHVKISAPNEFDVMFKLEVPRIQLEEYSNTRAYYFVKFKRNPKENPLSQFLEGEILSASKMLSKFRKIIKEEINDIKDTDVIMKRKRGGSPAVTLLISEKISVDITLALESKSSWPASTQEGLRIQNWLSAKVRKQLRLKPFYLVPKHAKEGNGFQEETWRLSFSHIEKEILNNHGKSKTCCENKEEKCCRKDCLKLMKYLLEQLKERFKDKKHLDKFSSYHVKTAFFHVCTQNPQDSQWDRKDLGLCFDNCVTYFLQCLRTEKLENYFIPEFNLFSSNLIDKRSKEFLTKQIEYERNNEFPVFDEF
Sequence of UniProt Q06187 (whole entry, looked up): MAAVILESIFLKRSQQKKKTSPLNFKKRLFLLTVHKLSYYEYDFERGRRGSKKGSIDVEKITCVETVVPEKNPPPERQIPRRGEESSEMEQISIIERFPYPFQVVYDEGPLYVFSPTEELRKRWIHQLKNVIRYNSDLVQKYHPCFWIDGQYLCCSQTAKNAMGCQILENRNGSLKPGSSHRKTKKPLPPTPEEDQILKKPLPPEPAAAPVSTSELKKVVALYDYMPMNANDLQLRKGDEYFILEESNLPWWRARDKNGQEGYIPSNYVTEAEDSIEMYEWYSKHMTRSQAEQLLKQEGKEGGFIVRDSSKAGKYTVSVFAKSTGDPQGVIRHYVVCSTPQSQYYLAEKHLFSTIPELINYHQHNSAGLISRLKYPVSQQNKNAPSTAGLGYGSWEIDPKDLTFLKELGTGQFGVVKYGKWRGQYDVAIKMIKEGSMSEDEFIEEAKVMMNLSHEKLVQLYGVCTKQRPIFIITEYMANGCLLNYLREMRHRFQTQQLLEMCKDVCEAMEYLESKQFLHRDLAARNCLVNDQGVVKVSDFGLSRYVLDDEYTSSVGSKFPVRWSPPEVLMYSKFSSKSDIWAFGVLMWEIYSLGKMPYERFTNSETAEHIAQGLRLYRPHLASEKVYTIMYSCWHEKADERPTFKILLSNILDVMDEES
Sequence of UniProt O00444 (whole entry, looked up): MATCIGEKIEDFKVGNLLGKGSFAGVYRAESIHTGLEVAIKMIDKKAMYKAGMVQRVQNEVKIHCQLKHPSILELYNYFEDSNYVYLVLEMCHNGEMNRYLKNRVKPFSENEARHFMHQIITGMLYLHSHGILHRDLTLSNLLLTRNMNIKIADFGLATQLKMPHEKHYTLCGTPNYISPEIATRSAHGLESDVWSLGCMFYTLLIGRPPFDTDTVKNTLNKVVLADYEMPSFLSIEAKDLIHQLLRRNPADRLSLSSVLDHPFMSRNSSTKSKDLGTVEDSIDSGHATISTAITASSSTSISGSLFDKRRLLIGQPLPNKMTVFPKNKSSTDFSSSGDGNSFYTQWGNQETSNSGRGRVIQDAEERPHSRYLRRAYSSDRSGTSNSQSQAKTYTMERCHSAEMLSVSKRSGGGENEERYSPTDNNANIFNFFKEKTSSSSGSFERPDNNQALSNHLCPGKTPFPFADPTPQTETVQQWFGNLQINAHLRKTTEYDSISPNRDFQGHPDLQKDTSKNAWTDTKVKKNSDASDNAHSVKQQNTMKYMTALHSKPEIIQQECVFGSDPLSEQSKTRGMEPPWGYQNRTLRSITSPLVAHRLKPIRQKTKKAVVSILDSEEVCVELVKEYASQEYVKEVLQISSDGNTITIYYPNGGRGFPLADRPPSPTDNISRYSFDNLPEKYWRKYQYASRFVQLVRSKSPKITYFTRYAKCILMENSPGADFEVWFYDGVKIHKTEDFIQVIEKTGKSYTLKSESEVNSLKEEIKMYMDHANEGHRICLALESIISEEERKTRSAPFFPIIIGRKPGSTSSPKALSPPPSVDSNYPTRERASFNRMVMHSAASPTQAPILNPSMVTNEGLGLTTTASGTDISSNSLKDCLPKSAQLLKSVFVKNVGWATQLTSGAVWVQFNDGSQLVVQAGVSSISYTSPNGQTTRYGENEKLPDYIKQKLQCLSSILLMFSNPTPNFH
Sequence of UniProt Q12879 (whole entry, looked up): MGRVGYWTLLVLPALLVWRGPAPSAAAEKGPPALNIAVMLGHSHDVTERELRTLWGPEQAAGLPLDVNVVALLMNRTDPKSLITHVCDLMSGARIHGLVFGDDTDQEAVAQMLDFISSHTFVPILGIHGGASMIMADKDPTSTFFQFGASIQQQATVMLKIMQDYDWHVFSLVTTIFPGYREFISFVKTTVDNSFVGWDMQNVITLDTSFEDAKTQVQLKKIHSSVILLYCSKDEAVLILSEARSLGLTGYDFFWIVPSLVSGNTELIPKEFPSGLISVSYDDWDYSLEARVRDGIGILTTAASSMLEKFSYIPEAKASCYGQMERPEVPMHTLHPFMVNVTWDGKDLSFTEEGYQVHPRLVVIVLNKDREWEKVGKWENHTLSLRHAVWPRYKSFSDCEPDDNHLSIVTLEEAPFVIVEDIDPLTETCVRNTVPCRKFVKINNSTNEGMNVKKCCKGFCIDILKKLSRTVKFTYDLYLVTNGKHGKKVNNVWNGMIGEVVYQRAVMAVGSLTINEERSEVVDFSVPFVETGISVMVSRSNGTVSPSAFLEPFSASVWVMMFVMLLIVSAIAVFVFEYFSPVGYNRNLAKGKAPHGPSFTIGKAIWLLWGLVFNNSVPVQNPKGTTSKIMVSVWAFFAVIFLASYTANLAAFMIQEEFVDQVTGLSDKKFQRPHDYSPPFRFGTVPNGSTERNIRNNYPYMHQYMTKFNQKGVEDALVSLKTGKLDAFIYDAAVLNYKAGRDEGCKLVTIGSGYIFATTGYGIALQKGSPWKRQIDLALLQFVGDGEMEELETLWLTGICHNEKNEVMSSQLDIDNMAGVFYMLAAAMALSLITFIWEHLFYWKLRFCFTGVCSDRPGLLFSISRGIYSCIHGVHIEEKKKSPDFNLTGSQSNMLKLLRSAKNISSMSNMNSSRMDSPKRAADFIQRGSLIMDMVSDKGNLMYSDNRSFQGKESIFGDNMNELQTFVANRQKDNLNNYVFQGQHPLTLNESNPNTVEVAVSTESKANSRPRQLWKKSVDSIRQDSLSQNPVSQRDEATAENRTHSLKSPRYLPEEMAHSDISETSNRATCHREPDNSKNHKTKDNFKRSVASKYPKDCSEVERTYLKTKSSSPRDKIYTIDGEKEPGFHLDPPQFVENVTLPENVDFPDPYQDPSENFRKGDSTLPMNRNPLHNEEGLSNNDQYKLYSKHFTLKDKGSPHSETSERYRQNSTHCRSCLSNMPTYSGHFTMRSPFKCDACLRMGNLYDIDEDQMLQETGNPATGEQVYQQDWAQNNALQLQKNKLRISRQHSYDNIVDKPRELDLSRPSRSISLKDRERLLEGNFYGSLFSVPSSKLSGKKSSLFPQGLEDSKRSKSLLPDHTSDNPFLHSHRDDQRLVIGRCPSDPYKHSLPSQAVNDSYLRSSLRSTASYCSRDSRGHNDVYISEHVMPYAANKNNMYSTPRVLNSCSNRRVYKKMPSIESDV
Sequence of UniProt P51575 (whole entry, unmodified, looked up): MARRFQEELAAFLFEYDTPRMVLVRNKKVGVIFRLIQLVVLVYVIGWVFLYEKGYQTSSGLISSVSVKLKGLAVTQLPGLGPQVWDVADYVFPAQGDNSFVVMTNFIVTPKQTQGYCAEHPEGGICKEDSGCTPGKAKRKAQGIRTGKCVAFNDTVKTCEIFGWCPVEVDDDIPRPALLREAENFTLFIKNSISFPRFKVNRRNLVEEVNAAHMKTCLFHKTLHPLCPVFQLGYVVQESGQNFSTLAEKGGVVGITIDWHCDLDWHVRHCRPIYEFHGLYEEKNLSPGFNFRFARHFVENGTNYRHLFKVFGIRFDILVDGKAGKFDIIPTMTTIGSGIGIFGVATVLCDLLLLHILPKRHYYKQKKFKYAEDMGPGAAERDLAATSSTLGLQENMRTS
Sequence of UniProt P34995 (whole entry, unmodified, looked up): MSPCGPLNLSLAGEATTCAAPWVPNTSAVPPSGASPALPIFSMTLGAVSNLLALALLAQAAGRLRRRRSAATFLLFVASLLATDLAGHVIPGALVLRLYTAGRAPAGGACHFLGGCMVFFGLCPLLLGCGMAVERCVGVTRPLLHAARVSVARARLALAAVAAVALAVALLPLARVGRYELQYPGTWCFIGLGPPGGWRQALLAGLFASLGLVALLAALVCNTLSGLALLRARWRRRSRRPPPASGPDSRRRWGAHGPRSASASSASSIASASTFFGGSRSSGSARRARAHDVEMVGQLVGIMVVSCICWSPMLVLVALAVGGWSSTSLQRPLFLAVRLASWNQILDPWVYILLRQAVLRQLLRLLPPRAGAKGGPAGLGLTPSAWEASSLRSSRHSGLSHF
Sequence of UniProt P61823 (whole entry, looked up): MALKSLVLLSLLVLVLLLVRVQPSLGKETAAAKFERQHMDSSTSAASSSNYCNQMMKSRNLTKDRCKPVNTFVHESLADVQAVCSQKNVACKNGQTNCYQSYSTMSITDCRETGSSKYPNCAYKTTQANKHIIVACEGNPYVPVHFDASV

| Structure (SMILES) | target or system | test | system | setting | scale | endpoint | result |
| --- | --- | --- | --- | --- | --- | --- | --- |
| CCC(C)(C)C(=O)C(=O)N1CCCC[C@H]1C(=O)N[C@H](CCc1ccc(OC)cc1)C(=O)N1[C@@H]2CC[C@H]1C[C@H](Nc1nc(NCCc3sc(N)nc3C)nc(N3CCn4ncnc4C3)n1)C2 | FKBP1A (Homo sapiens, UniProt P62942) | binding, TR-FRET |  |  |  | EC50 | 30 µM |
| CC(C)C[C@H](NC(=O)C[C@H](O)[C@H](CC(C)C)NC(=O)[C@H](Cc1c[nH]cn1)NC(=O)CNC(=O)[C@@H](NC(=O)[C@H](C)NC(=O)[C@H](Cc1c[nH]c2ccccc12)NC(=O)[C@H](CCC(N)=O)NC(=O)[C@@H](Cc1ccccc1)NC(=O)COCCOCCNC(=O)CCC(C(=O)O)N1CCN(CC(=O)O)CCN(CC(=O)O)CCN(CC(=O)O)CC1)C(C)C)C(N)=O (stereo partly shown) [lutetium-177 labelled] |  |  | female BALB/c nu/nu mice, heart | intravenous, 100 pmol, 4 h, together with: PA 300 µg |  | tissue uptake | 0.06 ± 0.02 %ID/g |
| COc1cc(Nc2ncc3c(n2)-c2ccc(Cl)cc2C(c2c(F)cccc2OC)=NC3)ccc1C(=O)NCCOCCOCCNC(=O)COc1cccc2c1C(=O)N(C1CCC(=O)NC1=O)C2=O (stereo not shown) | PLK4 (Homo sapiens, UniProt O00444) | binding, kinobead competition | MV4-11 cell lysate |  |  | EC50 | > 30 µM |
| Nc1ncnc2c1ncn2[C@@H]1O[C@H](COP(=O)(O)OP(=O)(O)OP(=O)(O)O)[C@@H](O)[C@H]1O | P2X purinoceptor 1 (P2RX1, Homo sapiens, UniProt P51575, K136E/K138D) | ion current, agonist, two-electrode voltage clamp |  | 2 |  | EC50 | 2.15 µM |
| Nc1ccc(CNc2ccncc2)c(F)c1 | ADRA2C | agonist, FLIPR reporter | reporter cell line |  |  | EC50 | 0.9 µM |
| CC(=O)OC[C@H]1O[C@@H]([S-])[C@H](OC(C)=O)[C@@H](OC(C)=O)[C@@H]1OC(C)=O.CCP(CC)CC.[Au+] | Toxoplasma gondii | parasite growth, luciferase reporter | HFF, tachyzoite | 72 h |  | EC50 | 2.75 µM |
| Cn1cc(-c2ccc(-c3cncc(Cl)c3N3CCC4(CCNC4=O)CC3)cc2)cn1 | COLO 205 | gene expression, microarray, measured: CTSB mRNA |  | concentration not given, 6 h | baseline: untreated cells | log2 fold change | 2.24 |
| CCn1c(-c2nc3cc(C(=O)N4CCC[C@@H](N)C4)cc(OC)c3n2C)cc2cccnc21 | ADRA2C | agonist, TR-FRET |  |  |  | EC50 | > 31.6 µM |
| Nc1nc(CCc2ccc(Cl)cc2)nn1S(=O)(=O)c1ccc2ncsc2c1 | Lysophospholipase-like protein 1 (Mus musculus, UniProt Q3UFF7) | enzyme activity, activator, gel-based ABPP |  |  |  | EC50 | 9.8 µM |
| Nc1ncnc2c1ncn2[C@@H]1O[C@H](COP(=O)(O)OP(=O)(O)OP(=O)(O)O)[C@@H](O)[C@H]1O | Acyl-coenzyme A oxidase acox-1.1 (acox-1.1, Caenorhabditis elegans, UniProt O62140) | enzyme activity, activator, enzyme-coupled kinetic |  |  |  | EC50 | 88.8 ± 8.6 µM |
| Cc1nn(-c2nc3c(F)cc(F)cc3s2)c(O)c1C(c1ccccc1C(=O)O)c1c(C)nn(-c2nc3c(F)cc(F)cc3s2)c1O | Cyclic GMP-AMP synthase, catalytic domain; with DNA (CGAS, Homo sapiens, UniProt Q8N884) | cGAS phase separation, inhibitor |  |  |  | EC50 | 1.19 µM |
| O=C(c1ccc(OCCN2CCCCC2)cc1)c1c(-c2ccc(O)cc2)sc2cc(O)ccc12 | Toxoplasma gondii | parasite growth, luciferase reporter | HFF, tachyzoite | 72 h |  | EC90 | 55.8 µM |
| Nc1ccn([C@@H]2O[C@H](COP(=O)(O)OP(=O)(O)O)[C@@H](O)[C@H]2O)c(=O)n1 | RNASE1 (Bos taurus, UniProt P61823) | native MS, single-point |  | 0.5 µM |  | Kd | 3.8 ± 0.1 µM |
| C[C@H](CCC(C)(C)O)[C@H]1CC[C@H]2[C@@H]3CC=C4C[C@@](C)(O)CC[C@]4(C)[C@H]3CC[C@]12C | Glutamate NMDA receptor; GRIN1/GRIN2A (Homo sapiens, UniProt Q05586+Q12879) | ion current, positive modulator, automated patch clamp | HEK293 (stable line) | together with: glutamate 0.8 µM and glycine |  | EC50 | 0.124 µM |
| Cc1cc(Nc2ccc(S(F)(F)(F)(F)F)cc2)n2nc(C(C)(F)F)nc2n1 | Plasmodium falciparum |  | P. falciparum malaria patients | oral, 250 mg |  | patients with blurred vision | 0% |
| CC(=O)c1cc([N+](=O)[O-])c(Sc2cccc(Cl)c2Cl)s1 | CAPN1 (Homo sapiens, UniProt P07384) | enzyme activity, inhibitor |  |  |  | EC50 | > 50 µM |
| COc1cc(Nc2ncc3c(n2)-c2ccc(Cl)cc2C(c2c(F)cccc2OC)=NC3)ccc1C(=O)O | TEC (Homo sapiens, UniProt P42680) | binding, kinobead competition | MV4-11 cell lysate |  |  | EC50 | 18.6 µM |
| CC[C@H]1[C@@H](O)[C@@H]2[C@H](CC[C@]3(C)[C@@H]([C@H](C)CCNC(=O)NS(=O)(=O)c4ccc(C(C)(C)C)cc4)CC[C@@H]23)[C@@]2(C)CC[C@@H](O)C[C@@H]12 | ABCB1 (Homo sapiens, UniProt P08183) |  | human, plasma | dose not given, mean, alone |  | Vd/F | 228 L |
| CC(C)(C)C=C(C#N)C(=O)N1CCC[C@@H](n2nc(-c3ccc(Oc4ccccc4)cc3)c3c(N)ncnc32)C1 | BTK (Homo sapiens, UniProt Q06187) | target occupancy, PP-BODIPY competition labelling | Ramos | 1 h |  | EC50 | 0.0202 ± 0.005 µM |
| CCCCC[C@H](O)/C=C/[C@H]1[C@H](O)CC(=O)[C@@H]1C/C=C\CCCC(=O)O | PTGER1 (Homo sapiens, UniProt P34995, L125A) | IP1 accumulation, agonist | AD293 | EP1 L125A mutant |  | EC50 | 0.0536 µM |
| O=C(Nc1ccc([N+](=O)[O-])cc1Cl)c1cc(Cl)ccc1O | Anoctamin-1 (Ano1, Mus musculus, UniProt Q8BHY3, F601A) | chloride current, whole-cell patch clamp | HEK-293T TMEM16F knockout |  |  | EC50 | 7.19 ± 0.66 µM |
| CC[C@H](C)[C@H](NC(=O)[C@H](Cc1ccc(OP(=O)(O)O)cc1)NC(=O)[C@H](CC(N)=O)NC(=O)[C@H](CC(C)C)NC(=O)[C@@H](N)CO)C(=O)N[C@@H](CC(=O)O)C(=O)N[C@@H](CC(C)C)C(=O)N[C@@H](CC(=O)O)C(=O)N[C@@H](CC(C)C)C(=O)N[C@H](C(=O)N[C@@H](CCCCN)C(=O)O)C(C)C | PTPN11 (Homo sapiens, UniProt Q06124, R4D/S502P) | enzyme activity, activator |  | pH 7.0, 2% DMSO, together with: DiFMUP 100 µM, phosphopeptide |  | EC50 | 0.3 ± 0.1 µM |

Excerpt of the above:
| Structure (SMILES) | target or system | test | system | setting | scale | endpoint | result |
| --- | --- | --- | --- | --- | --- | --- | --- |
| Cn1cc(-c2ccc(-c3cncc(Cl)c3N3CCC4(CCNC4=O)CC3)cc2)cn1 | COLO 205 | gene expression, microarray, measured: CTSB mRNA |  | concentration not given, 6 h | baseline: untreated cells | log2 fold change | 2.24 |
| O=C(c1ccc(OCCN2CCCCC2)cc1)c1c(-c2ccc(O)cc2)sc2cc(O)ccc12 | Toxoplasma gondii | parasite growth, luciferase reporter | HFF, tachyzoite | 72 h |  | EC90 | 55.8 µM |
| COc1cc(Nc2ncc3c(n2)-c2ccc(Cl)cc2C(c2c(F)cccc2OC)=NC3)ccc1C(=O)O | TEC (Homo sapiens, UniProt P42680) | binding, kinobead competition | MV4-11 cell lysate |  |  | EC50 | 18.6 µM |
